{"data": "Measurements gathered from unrelated publications", "cathepsin H": "cathepsin H (Capra hircus, UniProt A0A452G5L2)", "Dihydrofolate reductase": "Dihydrofolate reductase (Enterococcus faecalis, UniProt Q834R2)", "note": "Compare with care: the assays were run in different laboratories. ± marks the error that the study gave."}
{"Structure (SMILES)": "CNC(=O)C1CCN(c2cc(C)c(F)cc2NC(=O)c2ccc(-c3cc(O)ccc3C)c(C)c2)CC1", "target": "Ephrin type-B receptor 2 (EPHB2, Homo sapiens, UniProt P29323)", "assay": "cell-free assay, TR-FRET", "Ki": "0.0013 µM"}
{"Structure (SMILES)": "NC(=O)N/N=C(/C=C/c1ccccc1)c1ccccc1", "target": "cathepsin H", "assay": "competitive inhibitor, Lineweaver-Burk plot", "system": "goat liver enzyme", "conditions": "pH 7.0, with: Leu-βNA substrate", "Ki": "100 ± 0.4 µM"}
{"Structure (SMILES)": "CC[C@H](C)[C@H](NC(=O)[C@H](CCC(N)=O)NC(=O)[C@H](CCCNC(=N)N)NC(=O)[C@H](CC(C)C)NC(=O)[C@@H](NC(=O)[C@H](CCCCN)NC(=O)[C@H](Cc1ccc(O)cc1)NC(=O)[C@H](CCCCN)NC(=O)[C@H](CC(=O)O)NC(=O)[C@H](CCCNC(=N)N)NC(=O)CNC(=O)[C@H](CC(C)C)NC(=O)[C@@H](N)CCCNC(=N)N)[C@@H](C)O)C(=O)N[C@@H](CCCNC(=N)N)C(=O)N[C@@H](CCC(N)=O)C(=O)O", "target": "Leucine-rich repeat serine/threonine-protein kinase 2 (Lrrk2, Mus musculus, UniProt Q5S006)", "assay": "enzyme activity, inhibitor, TR-FRET", "Ki": "1300 µM"}
{"Structure (SMILES)": "Nc1ncnc2c(CN3C[C@H](CSc4cnccn4)[C@@H](O)C3)c[nH]c12", "target": "Aminodeoxyfutalosine nucleosidase (Helicobacter pylori, UniProt Q9ZMY2)", "assay": "enzyme activity, inhibitor", "conditions": "slow-onset equilibrium", "Ki": "6e-06 ± 1e-06 µM"}
{"Structure (SMILES)": "COc1cc(Cc2cnc(N)nc2N)cc(/C=C/C(=O)N2N=Cc3ccccc3C2C=C(C)C)c1OC (stereo not shown)", "target": "Dihydrofolate reductase", "assay": "enzyme activity, inhibitor", "conditions": "with: dihydrofolate (Km 10.9 µM)", "Ki": "0.0038 µM"}
{"Structure (SMILES)": "COC(=O)[C@]1(Cc2ccccc2)C=C(C(=O)OC(C)(C)C)C(=O)CC1", "target": "Mitogen-activated protein kinase 14 (MAPK14, Homo sapiens, UniProt Q16539)", "assay": "ligand displacement, FP", "Ki": "0.8 µM"}
{"Structure (SMILES)": "Nc1nc2c(ncn2[C@@H]2O[C@H](COP(=O)(O)OP(=O)(O)O[C@H]3O[C@@H](CNC(=O)Cc4ccccc4)[C@@H](O)[C@@H](O)[C@@H]3F)[C@@H](O)[C@H]2O)c(=O)[nH]1", "target": "FUT3 (Homo sapiens, UniProt P21217)", "assay": "enzyme activity, inhibitor", "Ki": "6.2 µM"}
{"Structure (SMILES)": "CC(=O)NCC(=O)N[C@@H](CCC(=O)O)C(=O)N[C@@H](CO)C(=O)N1CCC[C@H]1C(=O)N[C@H](C=O)CC(=O)O", "target": "Caspase-6 (CASP6, Homo sapiens, UniProt P55212)", "assay": "enzyme activity, inhibitor, fluorescence", "conditions": "pH 7", "Ki": "> 100 µM"}
{"Structure (SMILES)": "CC(C)OP(=O)(O)OCCCOP(=O)(O)OCCCOP(=O)(O)OCCCOP(=O)(O)OC(C)C", "target": "Ribonuclease pancreatic (RNASE1, Bos taurus, UniProt P61823)", "assay": "enzyme activity, inhibitor, fluorescence", "Ki": "> 10000 µM"}
{"Structure (SMILES)": "COc1cc(Cc2cnc(N)nc2N)cc(/C=C/C(=O)N2N=Cc3ccccc3C2C2CCCCC2)c1OC (stereo not shown)", "target": "Dihydrofolate reductase", "assay": "enzyme activity, inhibitor", "conditions": "with: dihydrofolate (Km 10.9 µM)", "Ki": "0.0027 µM"}
{"Structure (SMILES)": "CN(C)c1ccc2c(c1)C(=O)N(C(C(=O)O)C(C)(C)S)C2=O (stereo not shown)", "target": "Metallo-beta-lactamase type 2 (Serratia marcescens, UniProt P52699)", "assay": "enzyme activity, inhibitor", "conditions": "Km 4.8 µM, with: chromacef 25 µM", "Ki": "> 3 µM"}
{"Structure (SMILES)": "O=C(OCc1cccc(O)c1O)c1ccc(O)c(CO)c1", "target": "Neutrophil cytosol factor 1, tandem SH3 domain (NCF1, Homo sapiens, UniProt P14598)", "assay": "binding to p22phox peptide, inhibitor, fluorescence polarization", "Ki": "0.054 µM"}
{"Structure (SMILES)": "O=C(/C=C/c1ccc([N+](=O)[O-])cc1)c1ccccc1", "target": "cathepsin H", "assay": "competitive inhibitor, Lineweaver-Burk plot", "system": "goat liver enzyme", "conditions": "pH 7.0, with: Leu-βNA substrate", "Ki": "100 ± 0.05 µM"}
{"Structure (SMILES)": "O=S(=O)(NCc1cn(CB(O)O)nn1)c1cccs1", "target": "Beta-lactamase ADC-7 (Acinetobacter baumannii, UniProt Q6DRA1)", "assay": "enzyme activity, inhibitor", "conditions": "with: nitrocefin", "Ki": "0.31 ± 0.04 µM"}
{"Structure (SMILES)": "Cc1cc(N)nc(C[C@@H]2CNC[C@@H]2OCCCCCc2cccc(N)n2)c1", "target": "Nitric oxide synthase 1 (Nos1, Rattus norvegicus, UniProt P29476)", "assay": "enzyme activity, inhibitor", "conditions": "pH 7.4", "Ki": "0.03 µM"}
{"Structure (SMILES)": "CNC(=O)c1cc(C)ccc1NC(=O)c1ccc(-c2cc(O)ccc2C)c(C)c1", "target": "Ephrin type-A receptor 4 (EPHA4, Homo sapiens, UniProt P54764)", "assay": "enzyme activity, inhibitor", "Ki": "0.0067 µM"}
{"note": "Some of these lines once more:"}
{"Structure (SMILES)": "Nc1nc2c(ncn2[C@@H]2O[C@H](COP(=O)(O)OP(=O)(O)O[C@H]3O[C@@H](CNC(=O)Cc4ccccc4)[C@@H](O)[C@@H](O)[C@@H]3F)[C@@H](O)[C@H]2O)c(=O)[nH]1", "target": "FUT3 (Homo sapiens, UniProt P21217)", "assay": "enzyme activity, inhibitor", "Ki": "6.2 µM"}
{"Structure (SMILES)": "O=C(OCc1cccc(O)c1O)c1ccc(O)c(CO)c1", "target": "Neutrophil cytosol factor 1, tandem SH3 domain (NCF1, Homo sapiens, UniProt P14598)", "assay": "binding to p22phox peptide, inhibitor, fluorescence polarization", "Ki": "0.054 µM"}
